Measured values collected from several papers.
Each numbered part is a random draw from the data of one study; scales do not carry over between parts.

Set 1
Target: Fragile X messenger ribonucleoprotein 1, C-terminal low-complexity region (Fmr1, Mus musculus, UniProt P35922)
Method: RNA Bind-n-Seq
Molecule type: RNA
Sample: in vitro
Concentration: 200 nM
Notes: whole 134-nt RNA, ends assumed
Together with: 150 mM KCl
Relative to: input library
Direction: higher = stronger binding
The log2 enrichment of `GGGAGUUCUACAGUCCGACGAUCUGGGAGGUGGAUUUUGUUUAUUUUUUUAGCUCAUUUCCUGGGGUGGGAAUUUUUUUUUAAUAUGUGUCAUGAAUAAAGUUGUUUUUGAAAUGGAAUUCUCGGGUGUCAAGG` is reported as 0.223.
The log2 enrichment of `GGGAGUUCUACAGUCCGACGAUCUAACUUUAGAGGAGGAUCUGAUGGAUAUGGCAGUGGACGUGGAUUUGGGGAUGGCUAUAAUGGGUAGGGAGGAGGACCUGGAGGUGGCAAUGGAAUUCUCGGGUGUCAAGG` is reported as 0.22.
With `GGGAGUUCUACAGUCCGACGAUCCAAGUCCUGUGCUACACAUCGUAUGUACCGAAUCGGAAAAAGGUUUGGUUUUUGGAAAGUAUUAUGUUACGCCGUUCGGAUCUGCACUUCUGGAAUUCUCGGGUGUCAAGG` the log2 enrichment was -0.782.
`GGGAGUUCUACAGUCCGACGAUCCAAGUCCUGUGCUACACAUCGUAUGUACCGAAUCGGGAAAAAAAGGGAGGGAGGGAAAGUAUUAUGUUACGCCGUUCGGAUCUGCACUUCUGGAAUUCUCGGGUGUCAAGG` gave a log2 enrichment of 0.805.

Set 2
Target: Interferon regulatory factor 7, full length, phosphomimetic (IRF7, Homo sapiens, UniProt Q92985, residues 1-503, S471D/S472D/S475D/S476D/S477D/S483D/S484D/S487D)
Sequence of UniProt Q92985 (whole entry, unmodified, looked up): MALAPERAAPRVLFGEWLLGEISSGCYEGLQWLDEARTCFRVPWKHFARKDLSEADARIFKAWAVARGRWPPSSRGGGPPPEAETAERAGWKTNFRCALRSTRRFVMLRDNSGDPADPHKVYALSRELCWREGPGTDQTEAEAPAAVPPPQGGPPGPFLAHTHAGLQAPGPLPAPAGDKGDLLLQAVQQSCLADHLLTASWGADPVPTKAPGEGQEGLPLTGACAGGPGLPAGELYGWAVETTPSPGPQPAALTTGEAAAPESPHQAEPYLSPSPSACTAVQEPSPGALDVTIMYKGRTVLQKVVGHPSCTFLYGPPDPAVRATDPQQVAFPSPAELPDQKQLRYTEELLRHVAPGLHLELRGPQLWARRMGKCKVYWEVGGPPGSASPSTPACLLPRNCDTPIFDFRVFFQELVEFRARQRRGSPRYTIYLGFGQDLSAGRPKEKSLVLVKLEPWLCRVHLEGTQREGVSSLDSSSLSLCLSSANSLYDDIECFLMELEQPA
Method: protein-binding microarray
Molecule type: double-stranded DNA, one strand shown
Sample: in vitro
Concentration: 2200 nM top
Notes: 60-bp whole probe
Together with: salmon DNA 0.4 mg/ml
Relative to: random background probes
Direction: higher = stronger binding
Constant ends, left off below: GCCTAGCAC … GTCTTGATTCGCTTGACGCTGCTG
Under “fitted relative affinity”, `TTAGGACTGCTTCCCCTTTAGTGCTAG` is recorded as 1.33 z-score.
`GACGGATTCGGACTGGGGACGTGCTAG`: “fitted relative affinity” 0.253 z-score.
Under “fitted relative affinity”, `TTTGCTTTCCTTTATGTACTGTGCTAG` is recorded as 3.37 z-score.
For `GACGGTCTCCTTATCCTGCCGTGCTAG`, “fitted relative affinity” read 0.884 z-score.
Under “fitted relative affinity”, `TCAGTAAGCAAAAATGAACTGTGCTAG` is recorded as -1.16 z-score.
Under “fitted relative affinity”, `GACCGTTTCGGGTATCGGGACGTGCTA` is recorded as 3.87 z-score.

Set 3
Target: Sal-like protein 4, full length isoform B (SALL4, Homo sapiens, UniProt Q9UJQ4-2, residues 1-616)
Method: universal PBM
Molecule type: double-stranded DNA, one strand shown
Sample: in vitro
Concentration: not given
Notes: 8-mer, flanks averaged, mean of replicates
Direction: higher = stronger binding
Target sequence (chain): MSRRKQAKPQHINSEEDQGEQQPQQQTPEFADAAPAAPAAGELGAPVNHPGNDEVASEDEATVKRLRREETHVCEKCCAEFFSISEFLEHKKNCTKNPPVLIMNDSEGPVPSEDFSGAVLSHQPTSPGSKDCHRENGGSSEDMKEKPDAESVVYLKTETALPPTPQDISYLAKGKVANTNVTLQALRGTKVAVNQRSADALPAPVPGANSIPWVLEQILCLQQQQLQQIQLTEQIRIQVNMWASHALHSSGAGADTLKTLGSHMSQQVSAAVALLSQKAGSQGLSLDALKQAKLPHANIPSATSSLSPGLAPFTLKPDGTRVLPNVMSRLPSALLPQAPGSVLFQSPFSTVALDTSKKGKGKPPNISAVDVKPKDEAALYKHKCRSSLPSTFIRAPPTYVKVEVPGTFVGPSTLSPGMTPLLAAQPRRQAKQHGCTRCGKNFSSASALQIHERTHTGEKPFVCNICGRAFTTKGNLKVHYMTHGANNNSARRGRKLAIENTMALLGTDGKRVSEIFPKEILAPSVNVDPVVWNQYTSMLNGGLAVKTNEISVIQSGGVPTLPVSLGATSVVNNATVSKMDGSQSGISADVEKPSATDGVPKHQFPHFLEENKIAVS
With `ATAAACCC` the E-score was 0.138.
With `CATGATTA` the E-score was 0.331.
The E-score of `CTGTGAAC` is reported as -0.0158.
`TCTCCGCA` has an E-score of -0.178.
`GATCCTGA` has an E-score of -0.0859.

Single results of other studies
With `PhoQ, residues 284 288 289 292 302 303 NLMGRA` the fold induction was 1.07 (PhoP, residues 12 14 15 18 19 STWGI (Escherichia coli, UniProt P23836); Sort-seq, measured: YFP reporter; E. coli; PhoQ-PhoP variant library, together with: 10 µM Mg2+; relative to: high Mg2+ state, higher = stronger signaling).

Some of these lines once more (set 1):
`GGGAGUUCUACAGUCCGACGAUCCAAGUCCUGUGCUACACAUCGUAUGUACCGAAUCGGGAAAAAAAGGGAGGGAGGGAAAGUAUUAUGUUACGCCGUUCGGAUCUGCACUUCUGGAAUUCUCGGGUGUCAAGG` gave a log2 enrichment of 0.805.
The log2 enrichment of `GGGAGUUCUACAGUCCGACGAUCUAACUUUAGAGGAGGAUCUGAUGGAUAUGGCAGUGGACGUGGAUUUGGGGAUGGCUAUAAUGGGUAGGGAGGAGGACCUGGAGGUGGCAAUGGAAUUCUCGGGUGUCAAGG` is reported as 0.22.
The log2 enrichment of `GGGAGUUCUACAGUCCGACGAUCUGGGAGGUGGAUUUUGUUUAUUUUUUUAGCUCAUUUCCUGGGGUGGGAAUUUUUUUUUAAUAUGUGUCAUGAAUAAAGUUGUUUUUGAAAUGGAAUUCUCGGGUGUCAAGG` is reported as 0.223.
